{"data": "Assay results gathered from unrelated publications", "partner": "itself", "B1": "ccmK2 1-102 H82N (Synechococcus elongatus, UniProt Q03511); chain MPIAVGMIETLGFPAVVEAADAMVKAARVTLVGYEKIGSGRVTVIVRGDVSEVQASVSAGLDSAKRVAGGEVLSHHIIARPNENLEYVLPIRYTEAVEQFRM", "B2": "RBKS K54A (Homo sapiens, UniProt Q9H477); sequence looked up; chain MAASGEPQRQWQEEVAAVVVVGSCMTDLVSLTSRLPKTGETIHGHKFFIGFGGAGANQCVQAARLGAMTSMVCKVGKDSFGNDYIENLKQNDISTEFTYQTKDAATGTASIIVNNEGQNIIVIVAGANLLLNTEDLRAAANVISRAKVMVCQLEITPATSLEALTMARRSGVKTLFNPAPAIADLDPQFYTLSDVFCCNESEAEILTGLTVGSAADAGEAALVLLKRGCQVVIITLGAEGCVVLSQTEPEPKHIPTEKVKAVDTTGAGDSFVGALAFYLAYYPNLSLEDMLNRSNFIAAVSVQAAGTQSSYPYKKDLPLTLF", "B3": "Gm4951 D125G (Mus musculus, UniProt Q3UED7); sequence looked up; chain MGQLFSSRRSEDQDLSSSFIEYLKECEKGINIIPHEIITSIEINMKKGNIQEVNSTVRDMLREIDNTPLNVALTGETGSGKSSFINTLRGIGHEEGGAAHTGVTDKTKERHPYEHPKMPNVVFWGLPGTGSEDFQPKTYLEKMKFYEYDFFIIISATRFKKNDIDLAKAIGIMKKEFYFVRTQVDSDLRNEEDFKPQTFDREKVLQDIRLNCVNTFRENGIAEPPIFLISNKNVCHYDFPVLMDKLISDLPVFKRQNFMFSLPNITDSVIEKKRNFLRWKTWLEGFADGLLSFFLESDLETLEKSMKFYRTVFGVDDASLQRLARAWEIDQVDQVRAMIKSPAVFTPTDEETIQERLSRYNQEFCLANGYLLPKNHCREILYLKLYFLDMVTEDAKTLLKEICLRN", "B4": "ldh 1-316 (Geobacillus stearothermophilus, UniProt P00344); chain MKNNGGARVVVIGAGFVGASYVFALMNQGIADEIVLIDANESKAIGDAMDFNHGKVFAPKPVDIWHGDYDDCRDADLVVICAGANQKPGETRLDLVDKNIAIFRSIVESVMASGFQGLFLVATNPVDILTYATWKFSGLPHERVIGSGTILDTARFRFLLGEYFSVAPQNVHAYIIGEHGDTELPVWSQAYIGVMPIRKLVESKGEEAQKDLERIFVNVRDAAYQIIEKKGATYYGIAMGLARVTRAILHNENAILTVSAYLDGLYGERDVYIGVPAVINRNGIREVIEIELNDDEKNRFHHSAATLKSVLARAFT", "B5": "aqpZ 1-231 W206A (Escherichia coli, UniProt P60844); chain MFRKLAAECFGTFWLVFGGCGSAVLAAGFPELGIGFAGVALAFGLTVLTMAFAVGHISGGHFNPAVTIGLWAGGRFPAKEVVGYVIAQVVGGIVAAALLYLIASGKTGFDAAASGFASNGYGEHSPGGYSMLSALVVELVLSAGFLLVIHGATDKFAPAGFAPIAIGLALTLIHLISIPVTNTSVNPARSTAVAIFQGGWALEQLAFFWVVPIVGGIIGGLIYRTLLEKRD", "B6": "GGPS1 Y246D (Homo sapiens, UniProt O95749); sequence looked up; chain MEKTQETVQRILLEPYKYLLQLPGKQVRTKLSQAFNHWLKVPEDKLQIIIEVTEMLHNASLLIDDIEDNSKLRRGFPVAHSIYGIPSVINSANYVYFLGLEKVLTLDHPDAVKLFTRQLLELHQGQGLDIYWRDNYTCPTEEEYKAMVLQKTGGLFGLAVGLMQLFSDYKEDLKPLLNTLGLFFQIRDDYANLHSKEYSENKSFCEDLTEGKFSFPTIHAIWSRPESTQVQNILRQRTENIDIKKDCVHYLEDVGSFEYTRNTLKELEAKAYKQIDARGGNPELVALVKHLSKMFKEENE", "B7": "TBK1 D135N/E355A (Homo sapiens, UniProt Q9UHD2); sequence looked up; chain MQSTSNHLWLLSDILGQGATANVFRGRHKKTGDLFAIKVFNNISFLRPVDVQMREFEVLKKLNHKNIVKLFAIEEETTTRHKVLIMEFCPCGSLYTVLEEPSNAYGLPESEFLIVLRDVVGGMNHLRENGIVHRNIKPGNIMRVIGEDGQSVYKLTDFGAARELEDDEQFVSLYGTEEYLHPDMYERAVLRKDHQKKYGATVDLWSIGVTFYHAATGSLPFRPFEGPRRNKEVMYKIITGKPSGAISGVQKAENGPIDWSGDMPVSCSLSRGLQVLLTPVLANILEADQEKCWGFDQFFAETSDILHRMVIHVFSLQQMTAHKIYIHSYNTATIFHELVYKQTKIISSNQELIYAGRRLVLEPGRLAQHFPKTTEENPIFVVSREPLNTIGLIYEKISLPKVHPRYDLDGDASMAKAITGVVCYACRIASTLLLYQELMRKGIRWLIELIKDDYNETVHKKTEVVITLDFCIRNIEKTVKVYEKLMKINLEAAELGEISDIHTKLLRLSSSQGTIETSLQDIDSRLSPGGSLADAWAHQEGTHPKDRNVEKLQVLLNCMTEIYYQFKKDKAERRLAYNEEQIHKFDKQKLYYHATKAMTHFTDECVKKYEAFLNKSEEWIRKMLHLRKQLLSLTNQCFDIEEEVSKYQEYTNELQETLPQKMFTASSGIKHTMTPIYPSSNTLVEMTLGMKKLKEEMEGVVKELAENNHILERFGSLTMDGGLRNVDCL", "B8": "protein 303-462 (Bacillus pumilus, UniProt A3FMN7); sequence looked up; chain TIDKNALGDEGENLVLEYEKERVKLFDPSLVRKVVHLGKTKGLGYDIQSVVAEDGDFAEFVKYIEVKSTKRVTVPNLDDPSWIDTINLTRNEWIAATQHKSSYYLYRVYFTPGLATMYVINDPFTKNKDDILRAKPVSYRLDFSNKAVDFMVTEEKEEYR", "B9": "REC107 138-224 (Saccharomyces cerevisiae, UniProt P21651); chain KTKSDSSYRQVLVEEISRYNSKITRHVTNKQHETEKSMRCTQEMLFNVGSQLEDVHKVLLSLSKDMHSLQTRQTALEMAFREKADHA", "B10": "clcA 1-465 C85A/H234C/L198A (Escherichia coli, UniProt P37019); chain MKTDTPSLETPQAARLRRRQLIRQLLERDKTPLAILFMAAVVGTLVGLAAVAFDKGVAWLQNQRMGALVHTADNYPLLLTVAFLASAVLAMFGYFLVRKYAPEAGGSGIPEIEGALEDQRPVRWWRVLPVKFFGGLGTLGGGMVLGREGPTVQIGGNIGRMVLDIFRLKGDEARHTLLATGAAAGLAAAFNAPLAGIAFIIEEMRPQFRYTLISIKAVFIGVIMSTIMYRIFNCEVALIDVGKLSDAPLNTLWLYLILGIIFGIFGPIFNKWVLGMQDLLHRVHGGNITKWVLMGGAIGGLCGLLGFVAPATSGGGFNLIPIATAGNFSMGMLVFIFVARVITTLLCFSSGAPGGIFAPMLALGTVLGTAFGMVAVELFPQYHLEAGTFAIAGMGALLAASIRAPLTGIILVLEMTDNYQLILPMIITGLGATLLAQFTGGKPLYSAILARTLAKQEAEQLARSK", "B11": "emrE (Escherichia coli, UniProt P23895); sequence looked up; chain MNPYIYLGGAILAEVIGTTLMKFSEGFTRLWPSVGTIICYCASFWLLAQTLAYIPTGIAYAIWSGVGIVLISLLSWGFFGQRLDLPAIIGMMLICAGVLIINLLSRSTPH", "B12": "Pah F80A (Rattus norvegicus, UniProt P04176); sequence looked up; chain MAAVVLENGVLSRKLSDFGQETSYIEDNSNQNGAISLIFSLKEEVGALAKVLRLFEENDINLTHIESRPSRLNKDEYEFATYLDKRTKPVLGSIIKSLRNDIGATVHELSRDKEKNTVPWFPRTIQELDRFANQILSYGAELDADHPGFKDPVYRARRKQFADIAYNYRHGQPIPRVEYTEEEKQTWGTVFRTLKALYKTHACYEHNHIFPLLEKYCGFREDNIPQLEDVSQFLQTCTGFRLRPVAGLLSSRDFLGGLAFRVFHCTQYIRHGSKPMYTPEPDICHELLGHVPLFSDRSFAQFSQEIGLASLGAPDEYIEKLATIYWFTVEFGLCKEGDSIKAYGAGLLSSFGELQYCLSDKPKLLPLELEKTACQEYSVTEFQPLYYVAESFSDAKEKVRTFAATIPRPFSVRYDPYTQRVEVLDNTQQLKILADSINSEVGILCNALQKIKS", "B13": "KCNQ5 90-698 (Homo sapiens, UniProt Q9NR82); sequence looked up; chain LGKPLSYTSSQSCRRNVKYRRVQNYLYNVLERPRGWAFIYHAFVFLLVFGCLILSVFSTIPEHTKLASSCLLILEFVMIVVFGLEFIIRIWSAGCCCRYRGWQGRLRFARKPFCVIDTIVLIASIAVVSAKTQGNIFATSALRSLRFLQILRMVRMDRRGGTWKLLGSVVYAHSKELITAWYIGFLVLIFSSFLVYLVEKDANKEFSTYADALWWGTITLTTIGYGDKTPLTWLGRLLSAGFALLGISFFALPAGILGSGFALKVQEQHRQKHFEKRRNPAANLIQCVWRSYAADEKSVSIATWKPHLKALHTCSPTKKEQGEASSSQKLSFKERVRMASPRGQSIKSRQASVGDRRSPSTDITAEGSPTKVQKSWSFNDRTRFRPSLRLKSSQPKPVIDADTALGTDDVYDEKGCQCDVSVEDLTPPLKTVIRAIRIMKFHVAKRKFKETLRPYDVKDVIEQYSAGHLDMLCRIKSLQTRVDQILGKGQITSDKKSREKITAEHETTDDLSMLGRVVKVEKQVQSIESKLDCLLDIYQQVLRKGSASALALASFQIPPFECEQTSDYQSPVDSKDLSGSAQNSGCLSRSTSANISRGLQFILTPNEFS", "B14": "cooS 1-639 C41S/C49S (Rhodospirillum rubrum, UniProt P31896); chain MTHHDCAHCSSDACATEMLNLAEANSIETAWHRYEKQQPQSGFGSAGLSCRICLKGPCRIDPFGEGPKYGVCGADRDTIVARHLVRMIAAGTAAHSEHGRHIALAMQHISQGELHDYSIRDEAKLYAIAKTLGVATEGRGLLAIVGDLAAITLGDFQNQDYDKPCAWLAASLTPRRVKRLGDLGLLPHNIDASVAQTMSRTHVGCDADPTNLILGGLRVAMADLDGSMLATELSDALFGTPQPVVSAANLGVMKRGAVNIAVNGHNPMLSDIICDVAADLRDEAIAAGAAEGINIIGICCTGHEVMMRHGVPLATNYLSQELPILTGALEAMVVDVQCIMPSLPRIAECFHTQIITTDKHNKISGATHVPFDEHKAVETAKTIIRMAIAAFGRRDPNRVAIPAFKQKSIVGFSAEAVVAALAKVNADDPLKPLVDNVVNGNIQGIVLFVGCNTTKVQQDSAYVDLAKSLAKRNVLVLATGCAAGAFAKAGLMTSEATTQYAGEGLKGVLSAIGTAAGLGGPLPLVMHMGSCVDNSRAVALATALANKLGVDLSDLPLVASAPECMSEKALAIGSWAVTIGLPTHVGSVPPVIGSQIVTKLVTETAKDLVGGYFIVDTDPKSAGDKLYAAIQERRAGLGL", "B15": "ZTL 29-165 G46S/G80R (Arabidopsis thaliana, UniProt Q94BT6); sequence looked up; chain GGPIPYPVGNLLHTAPCSFVVTDAVEPDQPIIYVNTVFEMVTGYRAEEVLGRNCRFLQCRGPFAKRRHPLVDSMVVSEIRKCIDEGIEFQGELLNFRKDGSPLMNRLRLTPIYGDDDTITHIIGIQFFIETDIDLGP", "note": "Lines come from different studies, so protocols differ."}
{"Sequence": "B1 (ccmK2 1-102 H82N)", "technique": "SEC", "subunits per oligomer": 6}
{"Sequence": "B2 (RBKS K54A)", "technique": "mass photometry", "subunits per oligomer": 2}
{"Sequence": "B3 (Gm4951 D125G)", "technique": "mass photometry", "subunits per oligomer": 2}
{"Sequence": "B4 (ldh 1-316)", "technique": "AUC", "temperature": "20 °C", "subunits per oligomer": 4}
{"Sequence": "B5 (aqpZ 1-231 W206A)", "technique": "native MS", "subunits per oligomer": 4}
{"Sequence": "B6 (GGPS1 Y246D)", "technique": "SEC-MALS", "subunits per oligomer": 2}
{"Sequence": "B7 (TBK1 D135N/E355A)", "technique": "SEC-MALS", "subunits per oligomer": 2}
{"Sequence": "B8 (protein 303-462)", "technique": "SEC", "subunits per oligomer": 2}
{"Sequence": "GGGEIWKLHEEFLKKFEELLKLHEERLKKM (designed peptide; N-acetyl, C-terminal amide)", "technique": "AUC", "molecule type": "peptide", "subunits per oligomer": 3.4}
{"Sequence": "B9 (REC107 138-224)", "technique": "SEC-SAXS", "subunits per oligomer": 4}
{"Sequence": "B10 (clcA 1-465 C85A/H234C/L198A)", "technique": "SEC", "subunits per oligomer": 2}
{"Sequence": "B11 (emrE)", "technique": "AUC", "subunits per oligomer": 2}
{"Sequence": "B12 (Pah F80A)", "technique": "native gel", "subunits per oligomer": 2}
{"Sequence": "B13 (KCNQ5 90-698)", "technique": "cryo-EM", "subunits per oligomer": 4}
{"Sequence": "B14 (cooS 1-639 C41S/C49S)", "technique": "SEC-MALS", "subunits per oligomer": 2}
{"Sequence": "B15 (ZTL 29-165 G46S/G80R)", "technique": "SEC-SAXS", "subunits per oligomer": 2}
{"note": "For quick reference, copied from above:"}
{"Sequence": "B10 (clcA 1-465 C85A/H234C/L198A)", "technique": "SEC", "subunits per oligomer": 2}
{"Sequence": "B11 (emrE)", "technique": "AUC", "subunits per oligomer": 2}
